Measured values collected from several papers.
Every numbered part comes from another study and shows a few of its results, in no order. Substitutions count along the parent as printed.

Block 1
Target: RNA binding protein fox-1 homolog 2, RRM domain, GST-SBP tag (RBFOX2, Homo sapiens, UniProt O43251-10, residues 100-194)
Method: RNA Bind-n-Seq
Molecule type: RNA
Matrix: in vitro
Tested at: 365 nM
Setting: natural RNA segment, single round, ends assumed
Baseline: no-protein control
Reading: higher = stronger binding
Endpoint: RBNS enrichment (R)
All sequences stand within: GGGAGUUCUACAGUCCGACGAUC … UGGAAUUCUCGGGUGCCAA
Construct (chain): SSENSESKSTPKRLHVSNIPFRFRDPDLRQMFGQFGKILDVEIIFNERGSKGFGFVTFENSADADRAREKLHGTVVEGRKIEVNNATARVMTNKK
Strand = CUCUCCCCUUUUACCAUGACCUUGACACAUGAGCACAUGAAGGAAGGUAGCCAGGGGGCAUUUGCUGUCCAAAAAAAUGUUAUGAGCAGAAGAGAUUUUUACAGUAACAU; result = 0.349
Strand = UAUUUUGAAAGAUUUAUAUAUGAUGAAUUCUGGAUAUAUGACCAAUAAAACUGAUGAAGCAAAACCUGAGCAGUUGAUUUUGUUCACAUCAGCUUCUCCUGCCACAUGCA; result = 2.57
Strand = GGGCCGAGAGAACAUCAGAGGCAGGUAGGUUGCUUGUGGACAGCCUUAGACACCAAAUCCUUGCCUCUGGAGUGUAGCCACACACAACACAGAGAGUAACUGAAGCCUAU; result = 0.461
Strand = AUUCUUCUCUGCGCUUUACUGCUUUGCCUGAGGAAUCGAUUAUAUUUGACAGAGAAAUAUUGUUUAGACUGCAUUAUUUUUGUUCGACUCCAAAAGAUUUGCCAAAUAAC; result = 0.952
Strand = GGAGCUUGACUGUGGCUUCAGGUCCAGACCCUGAUCUCACUGGCAUCCCAAUACUGCAGGAGGGGUCUUCUCACAAAGCUCUGAGGGCUGGUCUUGACUAAGCAAUAAGA; result = 0.415
Strand = AUUCAUUCAGCGAAUGCUCAAGACAAGCCAGGCAUGCUGAGAAGCGGCGCUCUAGUUGUAUGUAAGAUGGGCAUUCCUCUGCUCUCCUCUAUUCUCCAUGUCGACUGAGA; result = 0.386
Strand = UCCCAGUUCUCUGACUCUCGCUCUAGAGUUGAGAACAGGCAGGGCCUGGUGUGCUCUGGGAUGUGCAAGGUGGAGCAGGCCUGUCAGUCAGCCUGCUGCUGCAUCUGUUC; result = 0.438
Strand = GCGGAGGUCCCCAGUGGCUGAGCAAACAGCCCCUUCUCUCGCUUUGGGUCUUUUUUUUGUUUCUUUCUUAAAGCCACUUUAGUGAGAAGCAGGUACCAAGCCUCAGGGUG; result = 0.237
Strand = GCAGGAACCGGACGGAAGAAUCCUCUCCAGGAGACUGGGCUUUAGUUAGUGGCUUGAUUCCCCGGCUUGCUCAAGGGAACUCAGAAAAUCAUCGUCCUUGUACUGCGCUU; result = 2.02
Strand = UACAUAUUAGAGAACAAGGAAUGUGUACUUUGGUGGCUUUGAACCAAGAAAAGGUUUUAAGCCUACUGGAUGGAGUCUAAAAUUCUUAGAAAUCAACUUUAGAGCUUUGC; result = 0.26
Strand = UAUUGAACAUAAUAACCAGUGUUUUUUAAAGACUUUUUUGUCAGGGUGCAGUAAAAUUCUCCAAUUACUUUUAUUCAUUUAUCUGCUUCCUAGUUUUAUUUUAGCCUUUA; result = 1.16
Strand = UUUGGAGGUCAAGCAUGUAGAAGGAAAAGGCUGUAGUCAUGAAUAUAGAACUGUCUGCUCUCCACCUUUUCCUCACUCUACAUUUAGUCAUCACACUGAACAGGAUGUGG; result = 1.54

Block 2
Target: Sal-like protein 4, full length isoform A (SALL4, Homo sapiens, UniProt Q9UJQ4, residues 1-1053)
Sequence of UniProt Q9UJQ4 (whole entry, looked up): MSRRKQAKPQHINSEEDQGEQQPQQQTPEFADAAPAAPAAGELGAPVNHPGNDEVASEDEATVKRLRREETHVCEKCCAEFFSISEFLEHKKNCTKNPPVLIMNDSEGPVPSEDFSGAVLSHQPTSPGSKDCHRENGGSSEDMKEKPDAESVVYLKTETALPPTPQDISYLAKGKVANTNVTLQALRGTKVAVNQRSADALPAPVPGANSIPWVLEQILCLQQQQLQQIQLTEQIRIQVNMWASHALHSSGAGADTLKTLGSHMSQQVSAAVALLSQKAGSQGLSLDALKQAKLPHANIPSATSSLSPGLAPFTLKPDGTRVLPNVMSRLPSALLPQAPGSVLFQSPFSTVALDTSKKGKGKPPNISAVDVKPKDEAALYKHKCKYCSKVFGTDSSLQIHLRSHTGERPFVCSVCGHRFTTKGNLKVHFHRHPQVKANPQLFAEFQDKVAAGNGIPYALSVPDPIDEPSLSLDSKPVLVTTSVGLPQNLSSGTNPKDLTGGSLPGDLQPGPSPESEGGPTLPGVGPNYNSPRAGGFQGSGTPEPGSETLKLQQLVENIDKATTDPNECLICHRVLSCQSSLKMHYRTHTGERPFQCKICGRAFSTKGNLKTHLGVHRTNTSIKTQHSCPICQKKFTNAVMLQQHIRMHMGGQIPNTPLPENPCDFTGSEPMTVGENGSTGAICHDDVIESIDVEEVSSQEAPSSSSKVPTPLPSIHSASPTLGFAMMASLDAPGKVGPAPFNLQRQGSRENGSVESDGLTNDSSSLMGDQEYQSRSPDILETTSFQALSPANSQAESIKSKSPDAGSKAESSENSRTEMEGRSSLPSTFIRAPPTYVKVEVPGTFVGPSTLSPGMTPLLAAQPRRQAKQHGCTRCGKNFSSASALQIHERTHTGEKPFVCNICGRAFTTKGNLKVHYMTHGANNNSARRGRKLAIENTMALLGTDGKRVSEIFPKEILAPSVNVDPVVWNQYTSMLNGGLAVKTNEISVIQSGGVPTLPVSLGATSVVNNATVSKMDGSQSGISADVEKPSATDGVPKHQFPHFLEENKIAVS
Method: universal PBM
Molecule type: double-stranded DNA, one strand shown
Matrix: in vitro
Tested at: 600 nM
Setting: 8-mer, flanks averaged, mean of replicates
Reading: higher = stronger binding
Endpoint: E-score
Strand = AACGAACG; result = 0.0178
Strand = CCTGAAAA; result = 0.158
Strand = ATTGTCGA; result = 0.0795
Strand = ATGCGCTG; result = -0.189
Strand = GTGTGGGA; result = -0.033
Strand = ATCATAAC; result = 0.41
Strand = TATGTAGA; result = 0.181
Strand = CCTGGTCC; result = -0.399
Strand = GTCATTTA; result = 0.192
Strand = TCTCAAGA; result = 0.041
Strand = CCAAGAAG; result = -0.0517
Strand = ACGAGAAC; result = -0.0335
Strand = AGAATGGG; result = -0.0923
Strand = ACATAACC; result = 0.239
Strand = TCTTTCAA; result = 0.108
Strand = GACGGAGA; result = -0.0136
Strand = CCGGAAGC; result = -0.31
Strand = CGCCCGAC; result = -0.303
Strand = ACTGGGGC; result = -0.239
Strand = AGATTAGG; result = -0.00756
Strand = ACCGGAAT; result = -0.161
Strand = CGGTCACA; result = -0.155
Strand = AGTCTTGC; result = 0.0527
Strand = TCTTGGAA; result = 0.149
Strand = TAGAGGGA; result = 0.0224

Block 3
Target: Histone acetyltransferase KAT6A, both winged helices, GST fusion (KAT6A, Homo sapiens, UniProt Q92794, residues 1-181)
Method: protein binding microarray
Molecule type: double-stranded DNA, one strand shown
Matrix: in vitro
Tested at: not given
Setting: 8-mer, flanks averaged, mean of 2 arrays, mostly near background
Baseline: not given
Reading: higher = stronger binding
Endpoint: E-score
Target sequence (chain): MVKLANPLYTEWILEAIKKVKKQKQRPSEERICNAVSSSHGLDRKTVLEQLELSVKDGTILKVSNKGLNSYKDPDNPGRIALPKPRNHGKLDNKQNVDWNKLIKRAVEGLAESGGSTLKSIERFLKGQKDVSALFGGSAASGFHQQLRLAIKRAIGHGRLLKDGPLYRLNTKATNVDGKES
Strand = AGGTCGAC; result = -0.136
Strand = ATAGTGAC; result = -0.0112
Strand = CAGAGGCC; result = -0.112
Strand = CAGCACCC; result = -0.0532
Strand = GGGAAAAA; result = -0.0147
Strand = CTAAGCCC; result = 0.0336
Strand = GGAGATCA; result = -0.0438
Strand = ACCCGAAC; result = 0.143
Strand = CTCCGGTC; result = 0.0254
Strand = TCCGCGCA; result = 0.359
Strand = TTCCAGAA; result = -0.118
Strand = ATCTCAAA; result = -0.0116
Strand = GGATGAAA; result = -0.0499
Strand = CTCGACCC; result = -0.0398
Strand = GTACACTA; result = -0.0352
Strand = ATGCTTAG; result = -0.0505
Strand = GGGGTCAA; result = -0.119
Strand = ATACTAAT; result = -0.0822
Strand = ACCTAAGT; result = -0.13
Strand = ACGAAGAG; result = -0.0627

Block 4
Target: RING finger protein unkempt homolog, zinc fingers 1-6, GST-SBP tag (UNK, Homo sapiens, UniProt Q9C0B0, residues 30-357)
Method: RNA Bind-n-Seq
Molecule type: RNA
Matrix: in vitro
Tested at: not given
Setting: RNA with constant flanks, human-mouse chimeric sites, ends assumed
Baseline: input RNA pool
Reading: higher = stronger binding
Endpoint: bound/input enrichment
All sequences stand within: GGGAGUUCUACAGUCCGACGAUC … CAACAGAGGAUUGAGCAUCA
Residues (chain): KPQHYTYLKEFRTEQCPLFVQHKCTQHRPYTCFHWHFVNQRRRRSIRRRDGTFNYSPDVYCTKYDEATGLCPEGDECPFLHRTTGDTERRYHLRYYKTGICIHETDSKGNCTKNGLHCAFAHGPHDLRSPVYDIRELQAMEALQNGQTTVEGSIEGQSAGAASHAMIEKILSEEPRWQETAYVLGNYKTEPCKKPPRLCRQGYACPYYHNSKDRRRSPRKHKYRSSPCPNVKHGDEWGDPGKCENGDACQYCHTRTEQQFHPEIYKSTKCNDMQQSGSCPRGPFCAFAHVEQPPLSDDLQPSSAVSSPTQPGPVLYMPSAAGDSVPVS
Strand = CUUCGGAAAAAAAAAUUACCUUUUCUGACAGUGCUUUCCCUCCCAUAGAUCCACGUUCAAGCUCAAAGAGCAAAGGCUUUGCACGGAGCUCAAACAUAAAAGAAAGAAAGAUUUCUGAGA; result = 0.32 ratio
Strand = GUGCCCUCCUUCUCGCUGCGGAGCCCGAGCUGGGAACCAUUCCGGGACUGGUACCCUGCACACAGCCGCCUCUUCGAUCAAGCUUUCGGGGUGCCCCGGUUGCCCGAGGAGUGGUCGCAG; result = 0.0624 ratio
Strand = UCCCAAAUCCAGCAGCUAGAAGGAGCCUUGAGACAAACACUCCACACACAGGGAAGGCGAUAACAUUGUAAAUUGGUUUACAUUUUUCUCCUUGAAUGAUUUUUCUAGAGGUCAUAGUGC; result = 0.446 ratio
Strand = UUCCCAAAGGCCUGGGACACCCCACCCCCGCUUUUUGGAAAGUUUUUGGCGUUUCUUUUCCUUCCCCAUACAAAGUGAUUACAGUUUCCCCCGCAAGGGUCUAUCGAAGGGCUUGACGGA; result = 0.496 ratio
Strand = GAGCGUCUUGCCCGCACUGGGAUCAUCGUGACCACUAGUGAGGCUGUCCUCCUACAGCUGGUGGCUGACAAAGACCAUCCAAAAUUCAAGGAAAUUCAGAACCUAAUUAAGGCGAGUGCC; result = 0.179 ratio
Strand = AUGGAAAAGGAUUCUCUGCCCCGCUUUGUGCGCUCUGAGUUUUAUCAGGAGCUAAUCAAGUAGUCAUCUGGUCAGGCUUCCAAAAGUUGCCCUGUGAGUUGAGUUACAUCCUUUGUAGCA; result = 0.185 ratio
Strand = AAAGAACCUCUCUCUGAAGAAGAGGAAGAAGACAAUGAUGAUGUUGAACCCAUUUCUGAAUUUCGAUUUGUGCCCAGUGAUAAGUCAGCGUUGGAGGCGAUGUUCACAGCAAUGUGUGAG; result = 0.243 ratio
Strand = AAAGUGAUGACUAUGUUUGUCCAACGACAGGUAUUUUCGGAGAGCAAGGAUGAGAUUGCGUUAGUCCUCUAUGGCACAGAUGGCACUGAUAAUGCCCUUUCUGGUGGGGACCAGUAUCAG; result = 0.154 ratio
Strand = ACACAAUAUGAGACCAACAGCAUGGACUUCAAAGUUGGGGCAGAUGGGACAGUCUUCGCCACCCGGGAGCUGCAGGUCCCCUCAGAGCAGGUGGCGUUCACGGUGACUGCAUGGGACAGC; result = 0.238 ratio
Strand = CGCUUGGAUGAGGCUGGUGUUACUGAUGAAGUGCUAGAUUCUGCCAUGCAAGCCUUCCUUCUGGAGGUCAUUGUUAAACAUGGGGAGCCGGCACCUUAUUUAUGUAACAAAGAUCCGUUU; result = 0.0933 ratio
Strand = UGUAGUUUCUUGAUUUAUCAUUUUUCUUGCUCGGGUUUUUCCUUUAGGAAAAGCCUAAAGAUUAGGUUGUAAGAAAAACAGAAGCCAUGUUUCGAAGACCUGUGUUAAUUACAGGUAGUC; result = 0.21 ratio

Block 5
Molecule: PhoQ, residues 284 288 289 292 302 303 SVTLVV
Method: Sort-seq
Item: YFP reporter
Matrix: E. coli
Setting: PhoQ-PhoP variant library
Together with: 10 µM Mg2+
Baseline: high Mg2+ state
Reading: higher = stronger signaling
Endpoint: fold induction
target = PhoP, residues 12 14 15 18 19 VGHWL (Escherichia coli, UniProt P23836); result = 2.44
target = PhoP, residues 12 14 15 18 19 NFFVT (Escherichia coli, UniProt P23836); result = 12.8
target = PhoP, residues 12 14 15 18 19 LHHYF (Escherichia coli, UniProt P23836); result = 11.4

Block 6
Target: CCND1, cyclin fold, Cln2 fusion (human)
Method: yeast growth competition, sequencing
Matrix: yeast
Setting: weak parent motif
Baseline: not given
Reading: higher = stronger binding
Endpoint: normalised enrichment score
Parent: REV3L docking peptide (human); PPVIIKYIIINRF
Variant = K6A; result = -0.432
Variant = Y7A; result = 0.528
Variant = N11A; result = -0.602
Variant = I9A; result = 0.0994
Variant = I8A; result = 0.252
Variant = I5A; result = -0.00423
